Experimental data gathered from unrelated publications.
Values joined by “and” are separate records of one study, mostly repeats; a detail may differ.
Target: Tyrosine-protein kinase Srms (SRMS, Homo sapiens, UniProt Q9H3Y6)

`Cc1cccc(O[C@H]2CCC[C@@H](C(C)CNCc3ccncc3)C2)c1` (relative stereo) gave an inhibition of -7% (enzyme activity, inhibitor; 10 µM).
For `COc1c(Cl)cccc1Nc1c(-c2ccncc2C#C[C@@]2(C)CCCN2C(=O)/C=C/CN(C)C)[nH]c2c1C(=O)NCC2`, the remaining binding was 60% (cell-free assay, competition with immobilised ligand; 3 µM).
The inhibition of `NC(=O)C[C@H]1CCc2sc3ncnc(O[C@H]4CC[C@H](N5CCOCC5)CC4)c3c21` is reported as 19% (enzyme activity, inhibitor; 10 µM).
`COc1cc(Nc2nc(C)cc(-c3cnn4nc(OC)ccc34)n2)cc(C(F)(F)F)c1` gave a remaining binding of 66% (binding, competition with immobilised ligand; 1 µM).
With `CN1CCN(Cc2ccc(-c3ccc(CO[C@H]4CCC[C@@H]4NC(=O)c4cc(-c5cnn(C)c5)cnc4N)cc3)cc2)CC1` the inhibition was 11% (enzyme activity, inhibitor; 0.1 µM).
For `Nc1ncc2c(n1)-c1c([nH]c3ccc(C4=CCOCC4)cc13)CCC2`, the remaining binding was 92% (binding, competition with immobilised ligand; 1 µM).
`CCn1cc(C(=O)O)c(=O)c2c(N)c(F)c(NC3CCCCC3)cc21` gave an inhibition of 7% (kinase activity; 0.1 µM, added: ATP at Km).
`C=CC(=O)Nc1cccc(-c2cnc3[nH]cc(C(=O)NC(C)(C)C)c3n2)c1` has an inhibition of -2% and -3% (kinase activity; 0.1 µM).
The remaining binding of `CCN1CCN(Cc2ccc(C(=O)Nc3ccc(C)c(NCc4cnc5[nH]ccc5c4OC)c3)cc2C(F)(F)F)CC1` is reported as 30% (binding, competition with immobilised ligand; 1 µM).
`Cc1ccc(C(=O)Nc2ccc(CN3CCN(C)CC3)c(C(F)(F)F)c2)cc1C#Cc1cnc2cccnn12` gave an upper asymptote of 66.2 (target engagement, NanoBRET; human cells).
The inhibition of `C=CC(=O)N1Cc2nc(-c3cc(-c4cc(Cl)cnc4Cl)c(F)cc3F)n(-c3ccncn3)c2C1` is reported as 6.7% (cell-free assay, inhibitor; 1 µM).
`Cc1cnc2nc1Nc1cccc(c1)COC/C=C/COCc1cc(ccc1OCCN1CCOCC1)N2` gave a remaining binding of 76% (binding, competition with immobilised ligand; 0.1 µM).
The remaining binding of `CNC1C[S+]2CC[S+]3CC[S+](C1)[Ru-4]321([N]=C=S)[n]2c3ccc(OC)cc3c3c4c(c5cc(F)c[n+]1c5c32)C(=O)NC4=O` (centres unmarked) is reported as 94% (KinomeScan; 0.1 µM; reference: untreated).
For `CCN1CCN(Cc2ccc(NC(=O)c3ccc(C)c(NC(=O)c4cncc(-c5cccs5)c4)c3)cc2C(F)(F)F)CC1`, the remaining binding was 14% (binding, competition with immobilised ligand; 1 µM).

Repeated from above:
`Cc1ccc(C(=O)Nc2ccc(CN3CCN(C)CC3)c(C(F)(F)F)c2)cc1C#Cc1cnc2cccnn12` gave an upper asymptote of 66.2 (target engagement, NanoBRET; human cells).
The remaining binding of `CNC1C[S+]2CC[S+]3CC[S+](C1)[Ru-4]321([N]=C=S)[n]2c3ccc(OC)cc3c3c4c(c5cc(F)c[n+]1c5c32)C(=O)NC4=O` (centres unmarked) is reported as 94% (KinomeScan; 0.1 µM; reference: untreated).
